Measured values of several laboratories.
Compare with care: the assays were run in different laboratories.
Sequence of UniProt Q06418 (whole entry, looked up): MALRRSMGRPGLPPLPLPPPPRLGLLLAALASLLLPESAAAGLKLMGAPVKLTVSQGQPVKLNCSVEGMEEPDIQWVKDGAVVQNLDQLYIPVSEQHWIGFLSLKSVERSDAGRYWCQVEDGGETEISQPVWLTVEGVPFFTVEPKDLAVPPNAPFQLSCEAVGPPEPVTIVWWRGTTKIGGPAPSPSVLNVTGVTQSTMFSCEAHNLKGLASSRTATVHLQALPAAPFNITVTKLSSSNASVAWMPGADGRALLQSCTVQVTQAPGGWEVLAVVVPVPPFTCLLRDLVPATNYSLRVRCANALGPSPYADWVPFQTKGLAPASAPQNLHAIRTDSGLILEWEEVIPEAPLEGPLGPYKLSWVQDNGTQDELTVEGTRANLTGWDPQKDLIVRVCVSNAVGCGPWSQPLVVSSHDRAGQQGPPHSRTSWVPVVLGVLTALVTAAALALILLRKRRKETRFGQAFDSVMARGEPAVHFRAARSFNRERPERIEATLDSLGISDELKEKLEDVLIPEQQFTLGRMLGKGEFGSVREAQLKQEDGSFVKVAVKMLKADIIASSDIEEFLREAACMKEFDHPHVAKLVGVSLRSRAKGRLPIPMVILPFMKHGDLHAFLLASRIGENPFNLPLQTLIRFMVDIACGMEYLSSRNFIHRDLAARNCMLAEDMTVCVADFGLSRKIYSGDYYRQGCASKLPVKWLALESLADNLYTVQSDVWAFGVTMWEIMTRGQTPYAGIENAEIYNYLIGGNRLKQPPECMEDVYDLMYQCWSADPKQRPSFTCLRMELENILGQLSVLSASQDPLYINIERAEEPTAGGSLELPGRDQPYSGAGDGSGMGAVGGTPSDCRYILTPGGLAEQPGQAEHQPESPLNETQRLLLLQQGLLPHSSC
Sequence of UniProt O00444 (whole entry, looked up): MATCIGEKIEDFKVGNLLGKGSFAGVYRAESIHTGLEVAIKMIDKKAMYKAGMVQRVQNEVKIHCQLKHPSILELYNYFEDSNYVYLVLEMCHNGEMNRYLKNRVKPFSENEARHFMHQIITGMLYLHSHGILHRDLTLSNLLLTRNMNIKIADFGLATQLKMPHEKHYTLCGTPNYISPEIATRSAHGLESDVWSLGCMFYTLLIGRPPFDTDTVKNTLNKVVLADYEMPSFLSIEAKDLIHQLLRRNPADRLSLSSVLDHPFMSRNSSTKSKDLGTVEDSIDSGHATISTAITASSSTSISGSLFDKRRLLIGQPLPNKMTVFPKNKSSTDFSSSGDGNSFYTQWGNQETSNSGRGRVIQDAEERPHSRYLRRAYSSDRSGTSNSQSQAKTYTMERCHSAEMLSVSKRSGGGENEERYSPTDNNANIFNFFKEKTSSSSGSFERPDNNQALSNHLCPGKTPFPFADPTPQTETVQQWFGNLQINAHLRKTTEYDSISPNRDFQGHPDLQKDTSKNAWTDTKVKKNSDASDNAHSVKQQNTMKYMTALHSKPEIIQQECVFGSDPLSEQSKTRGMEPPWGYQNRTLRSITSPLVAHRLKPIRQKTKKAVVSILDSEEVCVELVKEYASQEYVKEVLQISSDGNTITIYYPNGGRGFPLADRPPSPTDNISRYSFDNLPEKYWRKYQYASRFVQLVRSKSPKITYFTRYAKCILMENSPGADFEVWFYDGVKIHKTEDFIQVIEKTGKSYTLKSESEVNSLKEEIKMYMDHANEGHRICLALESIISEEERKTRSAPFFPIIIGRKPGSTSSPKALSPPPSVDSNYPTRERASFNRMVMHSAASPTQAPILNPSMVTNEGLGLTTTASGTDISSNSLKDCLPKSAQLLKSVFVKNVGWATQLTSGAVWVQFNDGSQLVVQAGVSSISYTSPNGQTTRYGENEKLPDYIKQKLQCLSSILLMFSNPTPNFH
Sequence of UniProt P07332 (whole entry, looked up): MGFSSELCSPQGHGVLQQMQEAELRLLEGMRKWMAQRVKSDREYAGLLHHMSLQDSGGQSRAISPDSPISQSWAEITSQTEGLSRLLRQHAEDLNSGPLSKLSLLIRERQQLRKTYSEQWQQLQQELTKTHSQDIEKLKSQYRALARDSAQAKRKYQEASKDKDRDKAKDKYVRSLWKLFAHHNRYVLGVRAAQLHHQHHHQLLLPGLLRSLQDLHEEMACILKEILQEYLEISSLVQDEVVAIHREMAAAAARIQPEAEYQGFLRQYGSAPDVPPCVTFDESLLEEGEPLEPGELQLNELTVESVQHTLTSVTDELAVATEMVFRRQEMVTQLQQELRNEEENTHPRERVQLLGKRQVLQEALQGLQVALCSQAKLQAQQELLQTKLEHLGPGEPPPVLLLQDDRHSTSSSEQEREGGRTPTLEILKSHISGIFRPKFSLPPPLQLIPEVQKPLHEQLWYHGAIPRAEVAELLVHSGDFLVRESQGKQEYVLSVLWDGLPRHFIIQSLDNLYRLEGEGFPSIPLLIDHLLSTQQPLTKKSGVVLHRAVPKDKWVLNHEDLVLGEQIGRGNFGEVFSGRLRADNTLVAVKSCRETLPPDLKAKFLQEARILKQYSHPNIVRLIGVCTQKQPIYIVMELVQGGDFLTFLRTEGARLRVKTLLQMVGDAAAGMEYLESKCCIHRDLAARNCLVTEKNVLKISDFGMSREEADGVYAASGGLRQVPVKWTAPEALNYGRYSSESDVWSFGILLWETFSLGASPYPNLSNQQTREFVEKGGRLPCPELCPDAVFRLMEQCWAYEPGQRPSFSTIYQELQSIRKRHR
Sequence of UniProt P18825 (whole entry, looked up): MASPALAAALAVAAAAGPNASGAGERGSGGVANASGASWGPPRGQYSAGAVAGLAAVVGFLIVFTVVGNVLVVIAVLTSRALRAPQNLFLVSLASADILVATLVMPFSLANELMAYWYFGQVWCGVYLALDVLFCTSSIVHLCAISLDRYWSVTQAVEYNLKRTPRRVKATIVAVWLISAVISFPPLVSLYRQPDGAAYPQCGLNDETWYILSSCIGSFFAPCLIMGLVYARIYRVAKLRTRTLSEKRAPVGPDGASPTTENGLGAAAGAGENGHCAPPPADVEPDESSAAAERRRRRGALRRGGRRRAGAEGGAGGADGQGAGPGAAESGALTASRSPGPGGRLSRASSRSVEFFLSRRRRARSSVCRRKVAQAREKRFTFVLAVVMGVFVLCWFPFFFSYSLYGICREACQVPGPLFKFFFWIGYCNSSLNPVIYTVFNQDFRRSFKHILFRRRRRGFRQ
Sequence of UniProt Q9UBN7 (whole entry, looked up): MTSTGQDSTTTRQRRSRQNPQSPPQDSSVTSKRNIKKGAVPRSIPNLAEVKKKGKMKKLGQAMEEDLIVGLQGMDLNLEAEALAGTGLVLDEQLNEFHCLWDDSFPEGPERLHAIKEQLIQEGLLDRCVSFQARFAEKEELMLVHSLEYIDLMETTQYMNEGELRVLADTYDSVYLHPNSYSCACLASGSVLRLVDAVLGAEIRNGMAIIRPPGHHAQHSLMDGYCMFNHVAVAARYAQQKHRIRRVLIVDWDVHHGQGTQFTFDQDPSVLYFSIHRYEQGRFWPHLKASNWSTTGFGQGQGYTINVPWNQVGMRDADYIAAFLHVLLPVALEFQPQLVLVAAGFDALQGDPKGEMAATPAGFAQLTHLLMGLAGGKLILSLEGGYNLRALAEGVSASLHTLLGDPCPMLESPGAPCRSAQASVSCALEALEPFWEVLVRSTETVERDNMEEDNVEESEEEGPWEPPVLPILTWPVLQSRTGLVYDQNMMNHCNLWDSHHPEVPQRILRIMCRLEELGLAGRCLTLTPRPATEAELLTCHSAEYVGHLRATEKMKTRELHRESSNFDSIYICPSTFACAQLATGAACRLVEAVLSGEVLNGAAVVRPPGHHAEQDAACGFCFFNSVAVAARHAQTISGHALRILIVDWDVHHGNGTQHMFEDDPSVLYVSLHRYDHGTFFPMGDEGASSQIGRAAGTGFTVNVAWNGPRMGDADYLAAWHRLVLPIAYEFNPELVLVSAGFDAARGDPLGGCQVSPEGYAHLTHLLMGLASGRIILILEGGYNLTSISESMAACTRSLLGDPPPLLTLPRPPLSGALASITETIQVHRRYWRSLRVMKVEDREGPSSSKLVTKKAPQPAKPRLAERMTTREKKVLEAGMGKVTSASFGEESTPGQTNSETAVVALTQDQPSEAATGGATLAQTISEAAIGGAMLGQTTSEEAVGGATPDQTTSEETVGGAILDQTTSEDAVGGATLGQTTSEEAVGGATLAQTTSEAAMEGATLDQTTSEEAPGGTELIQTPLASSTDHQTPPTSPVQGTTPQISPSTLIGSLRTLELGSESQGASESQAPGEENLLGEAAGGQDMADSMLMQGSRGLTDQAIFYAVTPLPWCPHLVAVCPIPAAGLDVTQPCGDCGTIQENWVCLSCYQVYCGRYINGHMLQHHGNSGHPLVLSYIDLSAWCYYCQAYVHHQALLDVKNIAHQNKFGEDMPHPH
Sequence of UniProt P34947 (whole entry, looked up): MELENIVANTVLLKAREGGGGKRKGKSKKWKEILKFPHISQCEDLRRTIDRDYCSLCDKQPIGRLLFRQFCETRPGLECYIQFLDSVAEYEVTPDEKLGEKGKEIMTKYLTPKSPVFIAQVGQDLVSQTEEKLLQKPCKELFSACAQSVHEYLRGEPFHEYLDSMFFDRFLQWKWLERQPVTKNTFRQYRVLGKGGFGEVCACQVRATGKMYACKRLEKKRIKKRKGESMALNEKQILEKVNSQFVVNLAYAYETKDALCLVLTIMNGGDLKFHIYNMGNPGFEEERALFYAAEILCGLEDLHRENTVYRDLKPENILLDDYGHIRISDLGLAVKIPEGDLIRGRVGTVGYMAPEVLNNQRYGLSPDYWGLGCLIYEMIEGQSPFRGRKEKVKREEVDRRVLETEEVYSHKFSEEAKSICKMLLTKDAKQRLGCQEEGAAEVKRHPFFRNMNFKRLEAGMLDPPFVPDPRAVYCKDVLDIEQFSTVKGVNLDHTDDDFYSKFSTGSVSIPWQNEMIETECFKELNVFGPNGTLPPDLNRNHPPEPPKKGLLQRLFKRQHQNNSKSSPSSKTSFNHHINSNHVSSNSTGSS

The microsomal CLint of `O=c1c2c(F)cc(Cl)cc2[nH]c2cccc(Oc3ccc(OC(F)(F)F)cc3)c12` is reported as 12.2 µL/min/mg (metabolic stability; mouse, liver microsomes; 1 µM, pH 7.4).
`CCCN(O)N=Nc1ccc(S(=O)(=O)Nc2cc(C)on2)cc1` has an inhibition of 26.8% (ABTS scavenging; 120 µg/mL).
The Cmax of `O=C1c2ccncc2C(=O)c2c1[nH]c1ccccc21` is reported as 3.43 µM (rat, plasma; intravenous, 5 mg/kg, single dose).
With `CCCCCCOc1ccc2c(=O)c3c([nH]c2c1)CCCC3` the microsomal CLint was 117 µL/min/mg (metabolic stability; mouse, liver microsomes; 1 µM, pH 7.4).
`COc1ccc([C@@H](O)c2cc(-c3ncnc4cc(N5CCOCC5)ccc34)c(F)cc2Cl)nn1` gave a Cmax of 1420 ng/mL (human, plasma; oral, 200 mg, multiple doses, once daily, patients).
`C1=C/COCc2cc(ccc2OCCN2CCCC2)Nc2nccc(n2)-c2cccc(c2)COC/1` has a remaining binding of 23% (ABL1 (Homo sapiens, UniProt P00519, Y253F); binding; 0.1 µM).
`Cn1nc2c(=O)n(C3CC3)ncc2c1[C@](N)(c1ccc(C(F)(F)F)c(Cl)c1)C1CC1` gave a hepatocyte CLint of 0.6 µL/min/10⁶ cells (metabolic stability; male Sprague-Dawley rat, hepatocytes; 0.5 µM, pH 7.4).
The remaining binding of `C=CC(=O)N1CCC(COCC(=O)N2CCN(c3nc(-c4cnc(N)nc4C(F)F)nc(N4CCOC[C@@H]4C)n3)CC2)CC1` is reported as 100% (FES (Homo sapiens, UniProt P07332); binding, competition with immobilised ligand; 1 µM).
For `N=C(N)c1ccc(OCCCCCCCCOc2ccc(C(=N)N)cc2)cc1`, the haemolysis was 0% (haemolysis; sheep; 200 µg/mL, 1 h).
For `COc1ccc2c(c1)CN(C(=O)CCN1CCC(Cc3ccccc3)CC1)CC[S@@+]2[O-]`, the Vd was 52.4 L (male human, plasma; intravenous, 0.6 mg/kg, healthy volunteers).
`Cc1cc([C@@H](C)Nc2ccccc2C(=O)O)c2nc(N3CCC(F)(F)CC3)c(C#N)c(=O)n2c1` gave a remaining binding of 70% (PLK4 (Homo sapiens, UniProt O00444); binding, competition with immobilised ligand; 10 µM).
With `CCN1CCN(Cc2ccc(NC(=O)c3ccc(C)c(NC(=O)c4cncc(-c5cccs5)c4)c3)cc2C(F)(F)F)CC1` the CL/F was 157 mL/min/kg (mouse, plasma; intraperitoneal, 30 mg/kg, single dose).
The haemolysis of `N=C(N)c1ccc(OCc2cccc(COc3ccc(C(=N)N)cc3)c2)cc1` is reported as 0.9% (haemolysis; sheep; 200 µg/mL, 1 h).
For `CCOC(=O)[C@@]12C[C@@H]1[C@@H](n1ccc3c(NC)nc(C#Cc4ccc(Cl)s4)nc31)[C@H](O)[C@@H]2O`, the concentration was 28.5 ng/mL (male Sprague-Dawley rat, plasma; oral, 3 mg/kg, 15 min).
`N#C[C@@]12C[C@@H]1[C@@H](n1cnc3c(N[C@@H](C4CCC4)C4CC4)nc(I)nc31)[C@H](O)[C@@H]2O` gave a Cmax of 23.5 ng/mL (male Wistar rat, plasma; oral, 3 mg/kg).
The tracer uptake of `Nc1ccc(C=Cc2ccc([125I])cc2)cc1` is reported as 2.65 %ID/g (Swiss mouse, brain; intravenous, 5 µCi, 30 min).
With `C#C[C@]1(CO)O[C@@H](n2cnc3c(N)nc(F)nc32)C[C@@H]1O` the AUC(0-t) was 20.7 µM·h (monkey, plasma; oral, 10 mg/kg).
`NCc1cc2c(cc1F)C(=O)N(C1CCC(=O)NC1=O)C2` (stereo not drawn) gave a concentration of 347 ng/mL (male CD-1 mouse, plasma; intravenous, 1 mg/kg, 4.98 min).
The Vd of `C=CC(=O)NC1CCN(c2ncc3ncnc(Nc4ccc(Oc5ccc6c(c5)ncn6C)c(C)c4)c3n2)CC1` is reported as 138 L (male human, plasma; intravenous, 100 µg, healthy volunteers).
`O=C(Nc1ccccc1)C1(C(F)(F)F)CC1` gave a logP of 2.27 (water; 24 h).
`O=C(NCc1nc(-c2ccccc2)cs1)[C@H]1CCCN(C(=O)COCCF)C1` gave a microsomal CLint of 66 µL/min/mg (metabolic stability; male Sprague-Dawley rat, liver microsomes; 0.5 µM).
With `COc1ccc2c(=O)n(C)c(-c3ccccc3)nc2c1` the concentration was 1.64 ng/mL (male Sprague-Dawley rat, muscle; oral, 30 mg/kg, 2 h, single dose).
With `c1ccc(-c2nc(N3CCCC3)c3ccccc3n2)nc1` the microsomal CLint was 136 µL/min/mg (metabolic stability; mouse, liver microsomes).
`CC[C@@](O)(c1cnc(C(F)(F)F)c(Cl)c1)c1c2cnn(C3CC3)c(=O)c2nn1C` has a hepatocyte CLint of 0.7 µL/min/10⁶ cells (metabolic stability; male Sprague-Dawley rat, hepatocytes; 0.5 µM, pH 7.4).
`CCONC(=O)N1CCC[C@H](C(=O)NCc2nc(-c3ccc(C#N)cc3)cs2)C1` has an AUC of 3.7 µM·h (male Sprague-Dawley rat, plasma; oral, 3 mg/kg).
`CCn1cc(C2CC2)c2c(Cc3ccc(C(F)(F)F)nc3)n(C)nc2c1=O` gave a Papp B→A of 56.4 ×10⁻⁶ cm/s (Caco-2).
`O=C1CC[C@H](N2Cc3cc(N4CCN(CC5CCN(c6ccc([C@@H]7c8ccc(O)cc8CC[C@@H]7c7ccccc7)cc6)CC5)CC4)ccc3C2=O)C(=O)N1` gave a fraction unbound of 0.098 (equilibrium dialysis; human, liver microsomes; 2.5 µM, 6 h).
The haemolysis of `N=C(N)c1ccc(OCCCOc2ccc(C(=N)N)cc2)cc1` is reported as 0.4% (haemolysis; sheep; 200 µg/mL, 1 h).
With `COc1cc(-c2cncc3c2CN(C)Cc2cc(N4CCNCC4)ccc2-3)cc(OC)c1OC` the remaining activity was 108% (GRK5 (Homo sapiens, UniProt P34947); enzyme activity, inhibitor; 1 µM).
With `COc1ccc2[nH]c([S+]([O-])Cc3ncc(C)c(OC)c3C)nc2c1` (stereo not drawn) the hepatocyte CLint was 18.4 µL/min/10⁶ cells (metabolic stability; human, hepatocytes; 0.5 µM, pH 7.4).
The inhibition of `O=C1O[C@H]([C@@H](O)CO)C(O)=C1O` is reported as 11.9% (ABTS scavenging; 10 µg/mL).
The AUC(0-inf) of `COc1cc2c3c(n(CCCN4CCOCC4)c(=O)c2cc1OC)-c1cc2c(cc1C3=O)OCO2` is reported as 2880 ng·h/mL (female beagle dog, plasma; intravenous, 100 mg/m², infusion).
The microsomal CLint of `N#Cc1ccc(-c2csc(CNC(=O)[C@H]3CCCN(C(=O)COCCF)C3)n2)cc1` is reported as 29 µL/min/mg (metabolic stability; human, liver microsomes; 0.5 µM).
The logP of `CCc1nn(C)c2nc(-c3ccc(C(=O)O)cc3)nc(NCc3ccc(F)cc3)c12` is reported as 4.7.
`Nc1ncn([C@H]2C[C@H](O)[C@@H](CO)O2)c(=O)n1` gave an AUC(0-t) of 70 ng·h/mL (female C57BL/6 mouse, plasma; oral, 0.4 mg/kg).
`CCCCNC(=O)NS(=O)(=O)c1ccc(C)cc1` has a hepatocyte CLint of 3.4 µL/min/10⁶ cells (metabolic stability; human, hepatocytes; 0.5 µM, pH 7.4).
For `N#CC1CCN(c2nc(-c3ccccn3)nc3ccccc23)C1` (stereo not drawn), the Papp was 15.3 ×10⁻⁶ cm/s (PAMPA; 10 µM, 3 h, pH 7.4).
`CNc1ncc2c(/C=C/C(=O)N3CCC(OC)CC3)nn(Cc3cccc(C(F)(F)F)c3)c2n1` has a remaining activity of 88% (TYRO3 (Homo sapiens, UniProt Q06418); enzyme activity, inhibitor, radiometric; 1 µM).
The Papp of `CCn1cnc2c(N3CCC(c4ccccn4)C3)nc(-c3ccccn3)nc21` (stereo not drawn) is reported as 19.2 ×10⁻⁶ cm/s (PAMPA; 10 µM, 3 h, pH 7.4).
With `Nc1ccn([C@@H]2O[C@H](CO)[C@@H](O)C2(F)F)c(=O)n1` the viability was 68.9% (HEK293; cell growth or viability, MTT; 1.25 µg/mL, 24 h).
With `CCn1ncc2c(N3CCC(c4ccccn4)C3)nc(-c3ccccn3)nc21` (stereo not drawn) the microsomal CLint was 63 µL/min/mg (metabolic stability; mouse, liver microsomes).
The concentration of `COc1cccc(-c2n[nH]c(SCc3ccccn3)n2)c1OC` is reported as 32500 ng/mL (male Sprague-Dawley rat, plasma; oral, 10 mg/kg, 15 min, single dose).
The Ki of `Cc1cc(Oc2ncccc2CN2CCN(c3c(C)cccc3C)CC2)ccc1-c1c(C)c(=O)[nH]c(=O)n1C` is reported as 194 nM (ADRA2C (Homo sapiens, UniProt P18825); ligand displacement, radioligand).
The haemolysis of `N=C(N)c1ccccc1OCc1ccccc1COc1ccccc1C(=N)N` is reported as 0% (haemolysis; sheep; 200 µg/mL, 1 h).
`c1ccc(-c2nc(N3CCc4cccnc4C3)c3ccccc3n2)nc1` has a Papp of 22.5 ×10⁻⁶ cm/s (PAMPA; 10 µM, 3 h, pH 7.4).
With `O=C(c1ccc(F)cc1)C1CCN(CCn2c(=O)[nH]c3ccccc3c2=O)CC1` the compound remaining was 43.5% (metabolic stability; dog, liver microsomes; 1 h).
`COc1cc(C(=O)NC2CCN(C)CC2)c(F)cc1Nc1ncc(C(F)(F)F)c(Oc2cccc3c2C(=O)N(C)C3)n1` gave a Vd/F of 538 L (human, plasma; oral, 50 mg, multiple doses, once daily, patients).
`c1ccc(-c2nc(NCCn3cnc4ccccc43)c3ccccc3n2)nc1` gave a Papp of 24.2 ×10⁻⁶ cm/s (PAMPA; 10 µM, 3 h, pH 7.4).
The MRT of `CC(C)Oc1c(NC(=O)c2ccc(NC(=O)[C@H](CC(N)=O)NC(=O)c3ccc(NC(=O)c4ccc(C#N)cc4)cc3)cc2)ccc(C(=O)Nc2ccc(C(=O)O)cc2)c1O` is reported as 3.13 h (male CD-1 mouse, plasma; subcutaneous, 5 mg/kg, single dose).
With `Cc1nc(-c2cnc(NC(C)C)n(C)c2=O)ccc1Oc1ccnc(-c2cnn(C)c2)c1` the AUC(0-t) was 50800 ng·h/mL (male beagle dog, plasma; oral, 30 mg/kg).
`c1ccc(CCNc2nc(-c3ccccn3)nc3ccccc23)nc1` gave a Papp of 20 ×10⁻⁶ cm/s (PAMPA; 10 µM, 3 h, pH 7.4).
`O=C(NO)c1cncc(OS(=O)(=O)Oc2ccc(C(F)(F)F)cc2)c1` has a Ki of 66 nM (HDAC6 (Homo sapiens, UniProt Q9UBN7); enzyme activity, inhibitor, fluorescence).
For `O=C(COc1ccc(Cl)cc1)NC12CC(c3nnc([C@H]4C[C@@H](OC(F)(F)F)C4)o3)(C1)C2`, the half-life was 43.6 h (human, plasma; oral, 45 mg, multiple doses, once daily, healthy volunteers).
For `Cc1cc(C)c(CNC(=O)c2cc(Cl)c3c(c2C)O[C@@](C)([C@H]2CC[C@H](N(C)C)CC2)O3)c(=O)[nH]1`, the Papp B→A was 19.7 ×10⁻⁶ cm/s (Caco-2; 3 µM).

Excerpt of the above:
The microsomal CLint of `O=c1c2c(F)cc(Cl)cc2[nH]c2cccc(Oc3ccc(OC(F)(F)F)cc3)c12` is reported as 12.2 µL/min/mg (metabolic stability; mouse, liver microsomes; 1 µM, pH 7.4).
`CCCN(O)N=Nc1ccc(S(=O)(=O)Nc2cc(C)on2)cc1` has an inhibition of 26.8% (ABTS scavenging; 120 µg/mL).
The Cmax of `O=C1c2ccncc2C(=O)c2c1[nH]c1ccccc21` is reported as 3.43 µM (rat, plasma; intravenous, 5 mg/kg, single dose).
With `CCCCCCOc1ccc2c(=O)c3c([nH]c2c1)CCCC3` the microsomal CLint was 117 µL/min/mg (metabolic stability; mouse, liver microsomes; 1 µM, pH 7.4).
